Literature values as cited in several papers.
Protocols differ between the studies behind these lines. Numbers after ± are the reported error.

c1ccc2c(C3NCCc4sccc43)c[nH]c2c1 (stereo not drawn)  fluorescence activity ratio (P-glycoprotein (ABCB1); inhibitor; 20 µM; relative to: untreated cells, higher = stronger inhibition): 5.14
CC(=O)c1cc(-c2cccc3nccn23)c2cc(N3CCOCC3)ccn12  ΔTm (BRD9 bromodomain; thermal shift; higher = stronger binding): 4.5 °C
CCCCCCCCCC(=O)CC(=O)Nc1ccccc1O  inhibition (RhlR Pseudomonas aeruginosa; rhlI-gfp(LVA) reporter, inhibitor; Pseudomonas aeruginosa, PAO-JP2; 10 µM): 70%
CS(=O)(=O)Nc1ccc(-c2cncc(-c3cccc4cc[nH]c34)c2)cc1  remaining activity (RIPK2; 1 µM): < 30%
CC(C)CNc1ccc(C(=O)C=C(O)C(F)(F)C(F)(F)F)cn1  IC50 (Plasmodium falciparum formate-nitrite transporter; L-lactate transport, inhibitor, radiolabelled uptake; yeast): 280 ± 30 nM
CCCCCCCCCC(=O)NC1CCCC1  inhibition (RhlR, Pseudomonas aeruginosa; reporter gene, antagonist, rhlA-lacZ reporter; Pseudomonas aeruginosa, PAO1; 250 µM): 80%
C/C(N)=N/C(=N\S(=O)(=O)c1ccc(C(F)(F)F)cc1)N1C[C@H](c2ccccc2)C(c2ccc(Cl)cc2)=N1  concentration for inhibition (inducible nitric oxide synthase; enzyme activity): 1 µM
Cn1nnnc1Sc1ncnc2scc(-c3cccc(S(C)(=O)=O)c3)c12  remaining activity (all other kinases; inhibitor; 10 µM; relative to: control): > 40%
O=c1ccc(OCCCN2CCCCC2)nn1-c1ccc(Cl)c(Cl)c1  inhibition (NMDA receptor; 1.0 µM): 27.7 ± 2.1%
CN(CCN)Cc1ccccc1Sc1ccccc1Cl  inhibition (G9a; enzyme activity; 100 µM): ~40%
O=C(C=C(O)C(F)(F)C(F)(F)F)c1ccco1  IC50 (Plasmodium falciparum formate-nitrite transporter; L-lactate transport, inhibitor, radiolabelled uptake; yeast): 170 ± 60 nM
COc1cc2c(cc1OC)C(c1c[nH]c3ccccc13)NCC2 (stereo not drawn)  fluorescence activity ratio (P-glycoprotein (ABCB1); inhibitor; 2 µM; relative to: untreated cells, higher = stronger inhibition): 2.34
O=C(C=C(O)C(F)(F)C(F)(F)F)c1ccc(NC2CCC2)nc1  IC50 (Plasmodium falciparum formate-nitrite transporter; L-lactate transport, inhibitor, radiolabelled uptake; yeast): 260 ± 30 nM
C[S+]([O-])c1ccc(Nc2nc(OCC3CCCCC3)c3nc[nH]c3n2)cc1 (stereo not drawn)  binding free energy (MCL1; experimental benchmark set): -7.85 kcal/mol
O=C(C=C(O)C(F)(F)C(F)(F)F)c1ccc(NCC2CC2)nc1  IC50 (Plasmodium falciparum formate-nitrite transporter; L-lactate transport, inhibitor, radiolabelled uptake; yeast): 170 ± 10 nM
O=C(N[C@@H](CCCCNC(=O)c1ccc([N+](=O)[O-])o1)c1nc2ccccc2[nH]1)c1ccc(-c2ccccc2)cc1  EC50 (STING HAQ allele, human; agonist; THP-1 (STING HAQ)): 800 nM
O=C(C=C(O)C(F)(F)C(F)(F)F)c1ccc(NCc2ccccc2)nc1  IC50 (Plasmodium falciparum formate-nitrite transporter; L-lactate transport, inhibitor, radiolabelled uptake; yeast): 510 ± 150 nM
Cc1[nH]c(=O)c(CNC(=O)c2cc(Cl)c3c(c2C)O[C@@](C)([C@H]2CC[C@H](N(C)C)CC2)O3)c(C)c1O  potency ratio (EZH2; enzyme activity, inhibitor; relative to: IC50 compound over valemetostat): ~4.3 fold
CS(=O)(=O)c1ccc(Nc2nc(OCC3CCCCC3)c3nc[nH]c3n2)cc1  binding free energy (JNK1; more negative = stronger binding): -9.41 kcal/mol
COc1ccc(Nc2nc(Nc3ccc(OCC[18F])cc3)ncc2Br)cc1  tissue uptake (S180 tumour-bearing mice, bone; intravenous, 15 min): 1.95 ± 0.25 %ID/g
CCC1C=C(C)C(O)C(C)CC(OC)C2OC(O)(C(=O)C(=O)N3CCCCC3C(=O)OC(C(C)=CC3CCC(O)C(OC)C3)C(C)C(O)CC1=O)C(C)CC2OC (stereo not drawn)  EC50 (FKBP12; binding, radioligand displacement; with: [3H]dihydro-FK506): 0.7 nM

For quick reference, copied from above:
CCCCCCCCCC(=O)NC1CCCC1  inhibition (RhlR, Pseudomonas aeruginosa; reporter gene, antagonist, rhlA-lacZ reporter; Pseudomonas aeruginosa, PAO1; 250 µM): 80%
C/C(N)=N/C(=N\S(=O)(=O)c1ccc(C(F)(F)F)cc1)N1C[C@H](c2ccccc2)C(c2ccc(Cl)cc2)=N1  concentration for inhibition (inducible nitric oxide synthase; enzyme activity): 1 µM
